{"data": "Experimental data collected from several papers", "note": "Each numbered part is a random draw from the data of one study; scales do not carry over between parts. Several values in a cell are separate wells, animals, samples, runs or records.", "UniProt P00519, sequence (whole entry, unmodified, looked up)": "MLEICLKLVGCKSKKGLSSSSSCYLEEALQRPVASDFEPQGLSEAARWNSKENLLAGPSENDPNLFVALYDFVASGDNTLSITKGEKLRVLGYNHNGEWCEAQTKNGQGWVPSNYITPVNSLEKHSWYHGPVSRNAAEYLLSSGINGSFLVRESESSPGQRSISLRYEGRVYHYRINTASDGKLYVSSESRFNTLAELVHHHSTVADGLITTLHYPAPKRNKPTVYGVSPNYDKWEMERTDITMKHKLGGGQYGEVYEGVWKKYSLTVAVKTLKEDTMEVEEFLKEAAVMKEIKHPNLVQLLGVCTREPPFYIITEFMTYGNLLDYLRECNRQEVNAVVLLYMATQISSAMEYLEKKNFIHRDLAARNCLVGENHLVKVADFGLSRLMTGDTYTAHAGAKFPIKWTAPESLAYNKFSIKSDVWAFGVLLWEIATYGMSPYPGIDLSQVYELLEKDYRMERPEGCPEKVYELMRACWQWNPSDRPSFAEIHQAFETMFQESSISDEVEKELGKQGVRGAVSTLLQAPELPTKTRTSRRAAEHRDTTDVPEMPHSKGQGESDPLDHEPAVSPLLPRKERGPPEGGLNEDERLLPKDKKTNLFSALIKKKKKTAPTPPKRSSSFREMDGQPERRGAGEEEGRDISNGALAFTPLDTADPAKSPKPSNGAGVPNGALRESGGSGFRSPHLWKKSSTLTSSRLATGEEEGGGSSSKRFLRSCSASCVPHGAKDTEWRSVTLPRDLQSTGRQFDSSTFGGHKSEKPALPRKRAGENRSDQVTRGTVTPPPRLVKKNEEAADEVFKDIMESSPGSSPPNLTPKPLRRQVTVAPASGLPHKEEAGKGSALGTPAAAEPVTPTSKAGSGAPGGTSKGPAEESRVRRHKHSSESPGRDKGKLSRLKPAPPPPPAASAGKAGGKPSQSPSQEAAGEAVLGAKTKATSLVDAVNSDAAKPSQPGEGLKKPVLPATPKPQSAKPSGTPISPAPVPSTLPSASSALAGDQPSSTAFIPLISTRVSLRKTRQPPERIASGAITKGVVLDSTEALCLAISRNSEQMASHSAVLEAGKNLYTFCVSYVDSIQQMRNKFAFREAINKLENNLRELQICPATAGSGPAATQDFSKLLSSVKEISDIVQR", "UniProt Q8WTQ7, sequence (whole entry, looked up)": "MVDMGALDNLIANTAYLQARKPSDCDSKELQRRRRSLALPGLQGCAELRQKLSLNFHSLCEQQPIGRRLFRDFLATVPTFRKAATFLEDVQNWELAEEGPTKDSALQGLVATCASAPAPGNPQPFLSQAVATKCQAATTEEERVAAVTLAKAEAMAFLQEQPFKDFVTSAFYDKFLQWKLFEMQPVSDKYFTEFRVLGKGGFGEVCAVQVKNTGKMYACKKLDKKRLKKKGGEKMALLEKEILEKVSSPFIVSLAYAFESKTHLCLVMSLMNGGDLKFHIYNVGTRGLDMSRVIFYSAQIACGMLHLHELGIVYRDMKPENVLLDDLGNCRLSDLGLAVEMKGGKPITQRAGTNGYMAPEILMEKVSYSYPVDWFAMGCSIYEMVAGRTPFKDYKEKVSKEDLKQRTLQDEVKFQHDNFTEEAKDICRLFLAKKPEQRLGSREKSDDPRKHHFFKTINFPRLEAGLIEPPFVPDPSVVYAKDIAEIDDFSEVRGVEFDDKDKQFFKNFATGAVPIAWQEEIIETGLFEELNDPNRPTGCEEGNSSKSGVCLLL", "UniProt Q09013, sequence (whole entry, looked up)": "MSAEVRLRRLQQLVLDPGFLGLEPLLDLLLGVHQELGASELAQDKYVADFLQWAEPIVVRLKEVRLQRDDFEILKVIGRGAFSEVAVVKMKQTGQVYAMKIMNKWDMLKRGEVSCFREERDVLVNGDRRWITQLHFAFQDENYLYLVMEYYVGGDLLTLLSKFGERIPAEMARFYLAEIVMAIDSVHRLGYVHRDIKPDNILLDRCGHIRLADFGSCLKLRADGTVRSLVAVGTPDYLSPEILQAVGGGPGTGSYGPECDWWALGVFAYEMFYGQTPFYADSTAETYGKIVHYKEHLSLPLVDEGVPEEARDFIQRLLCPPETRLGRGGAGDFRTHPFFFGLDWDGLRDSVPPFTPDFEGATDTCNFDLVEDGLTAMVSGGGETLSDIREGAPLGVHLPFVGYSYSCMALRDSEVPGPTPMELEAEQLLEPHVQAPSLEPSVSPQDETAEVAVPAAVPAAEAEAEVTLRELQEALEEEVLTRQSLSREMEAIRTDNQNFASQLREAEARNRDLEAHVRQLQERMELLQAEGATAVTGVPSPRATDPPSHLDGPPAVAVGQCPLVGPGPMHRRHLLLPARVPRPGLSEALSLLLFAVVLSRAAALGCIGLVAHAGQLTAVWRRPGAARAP", "UniProt P53355, sequence (whole entry, looked up)": "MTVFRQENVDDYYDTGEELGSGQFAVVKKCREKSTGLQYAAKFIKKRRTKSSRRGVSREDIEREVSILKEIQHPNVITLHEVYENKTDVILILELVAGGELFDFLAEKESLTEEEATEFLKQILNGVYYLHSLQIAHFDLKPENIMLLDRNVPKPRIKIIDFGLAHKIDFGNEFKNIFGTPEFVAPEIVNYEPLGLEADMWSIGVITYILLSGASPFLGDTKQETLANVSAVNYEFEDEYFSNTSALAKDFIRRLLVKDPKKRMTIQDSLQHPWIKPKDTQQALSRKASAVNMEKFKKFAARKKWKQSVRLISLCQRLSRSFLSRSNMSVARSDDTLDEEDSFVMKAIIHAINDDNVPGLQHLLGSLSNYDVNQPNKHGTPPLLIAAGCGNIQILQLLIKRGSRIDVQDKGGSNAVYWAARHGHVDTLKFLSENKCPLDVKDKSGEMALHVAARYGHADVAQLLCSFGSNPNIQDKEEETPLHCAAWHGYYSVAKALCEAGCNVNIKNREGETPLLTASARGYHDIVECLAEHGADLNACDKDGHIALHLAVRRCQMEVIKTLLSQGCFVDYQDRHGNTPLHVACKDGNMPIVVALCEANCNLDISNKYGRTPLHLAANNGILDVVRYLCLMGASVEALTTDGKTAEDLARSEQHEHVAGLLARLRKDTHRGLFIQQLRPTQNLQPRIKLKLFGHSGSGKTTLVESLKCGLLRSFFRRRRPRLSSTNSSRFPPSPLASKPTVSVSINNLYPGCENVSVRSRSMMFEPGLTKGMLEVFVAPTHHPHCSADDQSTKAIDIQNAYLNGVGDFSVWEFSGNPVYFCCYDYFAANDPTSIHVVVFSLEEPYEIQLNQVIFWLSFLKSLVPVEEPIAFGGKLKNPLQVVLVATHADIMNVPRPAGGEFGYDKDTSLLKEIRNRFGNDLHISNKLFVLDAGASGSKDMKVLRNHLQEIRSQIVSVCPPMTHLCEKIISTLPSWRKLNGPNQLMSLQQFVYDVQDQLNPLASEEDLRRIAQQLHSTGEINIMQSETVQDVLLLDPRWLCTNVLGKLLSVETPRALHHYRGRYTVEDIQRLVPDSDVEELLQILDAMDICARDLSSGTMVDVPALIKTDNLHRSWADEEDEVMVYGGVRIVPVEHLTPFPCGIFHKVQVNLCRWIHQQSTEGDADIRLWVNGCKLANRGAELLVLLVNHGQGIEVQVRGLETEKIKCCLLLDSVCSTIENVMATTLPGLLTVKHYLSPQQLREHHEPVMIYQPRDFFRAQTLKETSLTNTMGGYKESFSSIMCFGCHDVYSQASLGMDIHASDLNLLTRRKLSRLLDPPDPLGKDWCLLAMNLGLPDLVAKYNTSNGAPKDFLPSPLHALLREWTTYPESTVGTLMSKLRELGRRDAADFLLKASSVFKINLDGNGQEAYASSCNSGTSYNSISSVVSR", "UniProt Q9UIK4, sequence (whole entry, looked up)": "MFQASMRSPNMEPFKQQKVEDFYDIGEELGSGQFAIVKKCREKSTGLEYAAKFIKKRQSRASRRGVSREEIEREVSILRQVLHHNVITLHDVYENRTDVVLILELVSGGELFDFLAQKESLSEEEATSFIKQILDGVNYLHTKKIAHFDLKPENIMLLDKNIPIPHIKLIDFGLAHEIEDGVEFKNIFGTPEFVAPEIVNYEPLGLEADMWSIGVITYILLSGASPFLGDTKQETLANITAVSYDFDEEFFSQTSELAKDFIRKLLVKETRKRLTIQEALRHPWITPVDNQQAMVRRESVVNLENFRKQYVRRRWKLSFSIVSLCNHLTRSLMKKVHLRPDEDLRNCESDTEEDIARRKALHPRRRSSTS"}
{"data": "Set 1", "target": "Eukaryotic initiation factor 4A-III (Homo sapiens, UniProt P38919)", "observed": "RNA clamping", "method": "fluorescence polarization", "concentration": "concentration not given", "notes": "mean of two replicates", "added": "FAM-labelled poly r(AG)8 RNA", "UniProt P38919, sequence (whole entry, looked up)": "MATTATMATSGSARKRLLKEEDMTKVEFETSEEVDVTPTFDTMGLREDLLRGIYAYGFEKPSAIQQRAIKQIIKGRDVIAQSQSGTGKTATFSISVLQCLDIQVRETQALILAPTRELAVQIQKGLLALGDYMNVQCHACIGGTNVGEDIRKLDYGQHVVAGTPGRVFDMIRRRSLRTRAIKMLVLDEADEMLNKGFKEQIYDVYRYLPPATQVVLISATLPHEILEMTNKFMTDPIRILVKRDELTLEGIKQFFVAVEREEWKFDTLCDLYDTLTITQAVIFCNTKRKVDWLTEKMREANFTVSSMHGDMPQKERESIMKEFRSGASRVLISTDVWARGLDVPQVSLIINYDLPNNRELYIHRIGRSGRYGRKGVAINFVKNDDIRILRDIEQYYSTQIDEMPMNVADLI"}
{"Compound": "C#CCCC1(CCOc2ccc([C@@H]3[C@@H](C(=O)N(C)OC)[C@@H](O)[C@@]4(O)c5c(OC)cc(OC)cc5O[C@@]34c3ccc(OC)cc3)cc2)N=N1", "fluorescence polarization change": "-2.7 mP"}
{"Compound": "COC(=O)[C@@H]1[C@@H](c2ccccc2)[C@]2(c3ccc(OC)cc3)Oc3cc(OC)cc(OC)c3[C@@]23NC(C(C)C)=N[C@@]13O", "fluorescence polarization change": "29.6 mP"}
{"Compound": "COc1ccc([C@@]23Oc4cc(OC)cc(OC)c4[C@]2(O)[C@H](O)[C@H](C(=O)c2cc(C)c(C)o2)[C@H]3c2ccccc2)cc1", "fluorescence polarization change": "12.3 mP"}
{"Compound": "COc1ccc([C@@]23Oc4cc(OC)cc(OC)c4[C@]2(O)[C@H](O)[C@H](C(=O)c2cc4cccc(OC)c4o2)[C@H]3c2ccccc2)cc1", "fluorescence polarization change": "4.5 mP"}
{"Compound": "COCCN[C@@]12c3nc(-c4ccccc4)[nH]c(=O)c3[C@@H](c3ccccc3)[C@]1(c1ccc(OC)cc1)Oc1cc(OC)cc(OC)c12", "fluorescence polarization change": "2 mP"}
{"Compound": "CCOC(=O)[C@H]1[C@@H](O)[C@@]2(O)c3c(OC)cc(OC)cc3O[C@@]2(c2ccc(OC)cc2)[C@@H]1c1ccc(Br)cc1", "fluorescence polarization change": "3.2 mP"}
{"Compound": "C=CCN1c2cc(OC)cc(OC)c2[C@]2(O)[C@H](O)[C@H](C(=O)OC)[C@@H](c3ccccc3)[C@]12c1ccc(OC)cc1", "fluorescence polarization change": "0.4 mP"}
{"data": "Set 2", "Structure (SMILES)": "Cc1ccc(NC(=O)c2ccnc(C(F)(F)F)c2)cc1-c1cc(OCCO)nc(N2CCOCC2)c1", "concentration": "1 µM"}
{"target": "Mitogen-activated protein kinase 13 (MAPK13, Homo sapiens, UniProt O15264)", "assay": "competitive binding, scanMAX", "setting": "p38-delta, 1000 nM", "remaining binding": "93%"}
{"target": "Cyclin-dependent kinase 18 (CDK18, Homo sapiens, UniProt Q07002)", "assay": "competitive binding panel", "scale": "relative to: vehicle", "remaining binding": "100%"}
{"target": "Tyrosine-protein kinase ABL1 (ABL1, Homo sapiens, UniProt P00519, Q252H)", "assay": "competitive binding scan", "remaining binding": "99% and 59%"}
{"target": "Receptor tyrosine-protein kinase erbB-4 (ERBB4, Homo sapiens, UniProt Q15303)", "assay": "competitive binding panel", "scale": "relative to: vehicle", "remaining binding": "99%"}
{"target": "Death-associated protein kinase 1 (DAPK1, Homo sapiens, UniProt P53355)", "assay": "competitive binding panel", "scale": "relative to: vehicle", "remaining binding": "74%"}
{"target": "Leucine-rich repeat serine/threonine-protein kinase 2 (LRRK2, Homo sapiens, UniProt Q5S007, G2019S)", "assay": "competitive binding panel", "scale": "relative to: vehicle", "remaining binding": "100%"}
{"target": "Maternal embryonic leucine zipper kinase (MELK, Homo sapiens, UniProt Q14680)", "assay": "competitive binding panel", "scale": "relative to: vehicle", "remaining binding": "65%"}
{"target": "Serine/threonine-protein kinase DCLK2 (DCLK2, Homo sapiens, UniProt Q8N568)", "assay": "competitive binding panel, refers to: DCAMKL2", "scale": "relative to: vehicle", "remaining binding": "100%"}
{"data": "Set 3", "target": "Calcium/calmodulin-dependent protein kinase type II subunit alpha (CAMK2A, Homo sapiens, UniProt Q9UQM7)", "observed": "enzyme activity", "action": "inhibitor", "concentration": "10 µM", "UniProt Q9UQM7, sequence (whole entry, looked up)": "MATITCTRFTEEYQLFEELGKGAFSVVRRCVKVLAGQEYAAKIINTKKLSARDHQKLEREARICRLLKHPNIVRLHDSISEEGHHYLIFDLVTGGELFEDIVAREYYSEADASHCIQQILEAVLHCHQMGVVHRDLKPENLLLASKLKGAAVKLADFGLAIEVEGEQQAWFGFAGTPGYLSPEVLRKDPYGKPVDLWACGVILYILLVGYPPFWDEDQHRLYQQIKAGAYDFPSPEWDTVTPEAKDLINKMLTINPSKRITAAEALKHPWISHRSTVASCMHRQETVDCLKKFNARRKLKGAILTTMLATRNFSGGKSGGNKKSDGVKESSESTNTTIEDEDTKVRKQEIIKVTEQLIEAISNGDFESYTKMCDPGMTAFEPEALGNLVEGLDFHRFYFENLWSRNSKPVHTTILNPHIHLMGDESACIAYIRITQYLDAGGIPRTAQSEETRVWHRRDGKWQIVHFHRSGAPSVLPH"}
{"SMILES": "O=C1C[C@@H](c2ccc(O)cc2)Oc2cc(O[C@@H]3O[C@H](CO)[C@@H](O)[C@H](O)[C@H]3O)ccc21", "inhibition [%]": -32}
{"SMILES": "CCCCCCC/C=C/C(=O)CCc1ccc(O)c(OC)c1", "inhibition [%]": -42}
{"SMILES": "C[C@@H]1CC[C@]2(C(=O)O)CC[C@]3(C)C(=CC[C@@H]4[C@@]5(C)CC[C@H](O)C(C)(C)[C@@H]5CC[C@]43C)[C@@H]2[C@]1(C)O", "inhibition [%]": -5}
{"SMILES": "Cc1cncc(C)n1", "inhibition [%]": -11}
{"SMILES": "O=C(O)CO", "inhibition [%]": 33}
{"SMILES": "O=C(/C=C/c1ccc(O)c(O)c1)O[C@H]1[C@H](O)C[C@](O)(C(=O)O)C[C@H]1OC(=O)/C=C/c1ccc(O)c(O)c1", "inhibition [%]": -5}
{"SMILES": "CC(=O)O[C@H](CC=C(C)C)C1=CC(=O)c2c(O)ccc(O)c2C1=O", "inhibition [%]": -5}
{"SMILES": "OC(CCN1CCCC1)(c1ccccc1)C1CCCCC1 (centres unmarked)", "inhibition [%]": -6}
{"SMILES": "O=C(O)c1ccc2c(c1)C(=O)c1ccccc1C2=O", "inhibition [%]": 3}
{"data": "Set 4", "SMILES": "O=C(N[C@H]1CCCCC/C=C\\C2C[C@@]2(C(=O)O)NC(=O)[C@@H]2C[C@@H](Oc3ccncc3)CN2C1=O)OC1CCCC1 (some centres unmarked)", "method": "competition with immobilised ligand", "concentration": "1 µM"}
{"target": "Myotonin-protein kinase (DMPK, Homo sapiens, UniProt Q09013)", "assay": "binding", "remaining binding [%]": 89}
{"target": "Death-associated protein kinase 2 (DAPK2, Homo sapiens, UniProt Q9UIK4)", "assay": "binding", "remaining binding [%]": 100}
{"target": "Receptor-type tyrosine-protein kinase FLT3 (FLT3, Homo sapiens, UniProt P36888, D835V/ITD)", "assay": "binding", "remaining binding [%]": 100}
{"target": "Mitogen-activated protein kinase kinase kinase 3 (MAP3K3, Homo sapiens, UniProt Q99759)", "assay": "binding", "remaining binding [%]": 89}
{"target": "Mitogen-activated protein kinase kinase kinase 2 (MAP3K2, Homo sapiens, UniProt Q9Y2U5)", "assay": "binding", "remaining binding [%]": 69}
{"target": "Rhodopsin kinase GRK7 (GRK7, Homo sapiens, UniProt Q8WTQ7)", "assay": "binding", "remaining binding [%]": 100}
{"target": "Serine/threonine-protein kinase mTOR (MTOR, Homo sapiens, UniProt P42345)", "assay": "cell-free assay", "remaining binding [%]": 100}
{"target": "Serine/threonine-protein kinase PLK3 (PLK3, Homo sapiens, UniProt Q9H4B4)", "assay": "binding", "remaining binding [%]": 100}
{"target": "Beta-adrenergic receptor kinase 1 (GRK2, Homo sapiens, UniProt P25098)", "assay": "binding", "remaining binding [%]": 51}
{"target": "Mitogen-activated protein kinase kinase kinase 11 (MAP3K11, Homo sapiens, UniProt Q16584)", "assay": "binding", "remaining binding [%]": 97}
{"target": "Receptor-interacting serine/threonine-protein kinase 1 (RIPK1, Homo sapiens, UniProt Q13546)", "assay": "binding", "remaining binding [%]": 88}
{"target": "Serine/threonine-protein kinase 36 (STK36, Homo sapiens, UniProt Q9NRP7)", "assay": "binding", "remaining binding [%]": 85}
{"target": "High affinity nerve growth factor receptor (NTRK1, Homo sapiens, UniProt P04629)", "assay": "cell-free assay", "remaining binding [%]": 100}
{"target": "5'-AMP-activated protein kinase catalytic subunit alpha-2 (PRKAA2, Homo sapiens, UniProt P54646)", "assay": "cell-free assay", "remaining binding [%]": 71}
{"note": "Repeated from above (set 4):"}
{"target": "Death-associated protein kinase 2 (DAPK2, Homo sapiens, UniProt Q9UIK4)", "assay": "binding", "remaining binding [%]": 100}
{"target": "Receptor-type tyrosine-protein kinase FLT3 (FLT3, Homo sapiens, UniProt P36888, D835V/ITD)", "assay": "binding", "remaining binding [%]": 100}
{"target": "Mitogen-activated protein kinase kinase kinase 3 (MAP3K3, Homo sapiens, UniProt Q99759)", "assay": "binding", "remaining binding [%]": 89}
{"target": "Mitogen-activated protein kinase kinase kinase 2 (MAP3K2, Homo sapiens, UniProt Q9Y2U5)", "assay": "binding", "remaining binding [%]": 69}
